Results of several laboratories.
Parts stem from different laboratories: compare values within a part only.

Sample 1
Target: Interferon regulatory factor 7, full length, phosphomimetic (IRF7, Homo sapiens, UniProt Q92985, residues 1-503, S101K/S471D/S472D/S475D/S476D/S477D/S483D/S484D/S487D)
Technique: protein-binding microarray
Form: double-stranded DNA, one strand shown
Medium: in vitro
Concentration: 250 nM
Setting: 60-bp whole probe
Added: salmon DNA 0.4 mg/ml
Reference: random background probes
Direction: higher = stronger binding
Constant ends, left off below: GCCTAGCAC … GTCTTGATTCGCTTGACGCTGCTG
Target sequence (chain): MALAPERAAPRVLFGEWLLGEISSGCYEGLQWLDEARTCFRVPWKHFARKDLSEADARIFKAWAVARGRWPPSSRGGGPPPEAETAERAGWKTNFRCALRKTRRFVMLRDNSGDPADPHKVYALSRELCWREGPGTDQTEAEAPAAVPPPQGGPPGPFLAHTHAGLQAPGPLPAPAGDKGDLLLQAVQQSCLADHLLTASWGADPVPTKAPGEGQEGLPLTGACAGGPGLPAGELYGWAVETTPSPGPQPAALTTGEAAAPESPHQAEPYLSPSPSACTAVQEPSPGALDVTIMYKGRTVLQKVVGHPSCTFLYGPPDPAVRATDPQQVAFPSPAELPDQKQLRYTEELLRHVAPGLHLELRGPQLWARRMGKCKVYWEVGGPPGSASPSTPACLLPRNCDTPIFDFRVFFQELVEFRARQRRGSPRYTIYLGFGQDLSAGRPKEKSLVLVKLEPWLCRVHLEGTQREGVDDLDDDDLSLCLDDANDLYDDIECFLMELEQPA
The log fluorescence of `TCTCATTTCCAATTACCTTTGTGCTAG` is reported as 2.01 z-score.
The log fluorescence of `GACGGTTTCGGACTGAGGACGTGCTAG` is reported as 4.41 z-score.
With `GACGGTATCGACTATCGGTACGTGCTA` the log fluorescence was 0.127 z-score.
For `GACAGACTGGACTATCGGGACGTGCTA`, the log fluorescence was -0.546 z-score.
With `TCACCTTTACATTCCCCACTGTGCTAG` the log fluorescence was 0.865 z-score.
`TTAGGTTTCCGTATCGGTTAGTGCTAG` has a log fluorescence of 3.77 z-score.
The log fluorescence of `TTAGATTTCGGATATCGATTAGTGCTA` is reported as 1.06 z-score.
`GACGGTTCCGGACTGGGGACGTGCTAG` has a log fluorescence of 0.22 z-score.
With `TCACATTTTCGTTTTGTACTGTGCTAG` the log fluorescence was 10.5 z-score.

Sample 2
Target: Sal-like protein 4, full length isoform B (SALL4, Homo sapiens, UniProt Q9UJQ4-2, residues 1-616)
Technique: universal PBM
Form: double-stranded DNA, one strand shown
Medium: in vitro
Concentration: not given
Setting: 8-mer, flanks averaged, mean of replicates
Direction: higher = stronger binding
`AAGGACAT` gave an E-score of 0.0819.
`ATTGGGTG` gave an E-score of 0.0262.
`GATCTGCA` has an E-score of -0.0909.
For `ACACGAAA`, the E-score was 0.064.
The E-score of `TGACTCAA` is reported as -0.0163.
`TATGGAGA` has an E-score of 0.226.

Sample 3
Target: Histone acetyltransferase KAT6A, both winged helices, GST fusion (KAT6A, Homo sapiens, UniProt Q92794, residues 1-181)
Technique: protein binding microarray
Form: double-stranded DNA, one strand shown
Medium: in vitro
Concentration: not given
Setting: 8-mer, flanks averaged, mean of 2 arrays, mostly near background
Reference: not given
Direction: higher = stronger binding
Target sequence (chain): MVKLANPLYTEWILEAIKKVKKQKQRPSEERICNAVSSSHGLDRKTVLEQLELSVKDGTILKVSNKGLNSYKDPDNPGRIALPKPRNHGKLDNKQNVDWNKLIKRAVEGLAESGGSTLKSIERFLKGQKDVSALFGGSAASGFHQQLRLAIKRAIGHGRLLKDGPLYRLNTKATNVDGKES
`CTCGTATA` has an E-score of -0.11.
`CCAGATGC` has an E-score of -0.163.
`GCCCTTAC` gave an E-score of 0.0525.
With `TAAAACTA` the E-score was -0.0483.
For `ACAATATG`, the E-score was -0.0632.

Single results of other studies
`PhoQ, residues 284 288 289 292 302 303 SSCCRF` has a fold induction of 11.7 (PhoP, residues 12 14 15 18 19 MHTVL (Escherichia coli, UniProt P23836); Sort-seq, refers to: YFP reporter; E. coli; PhoQ-PhoP variant library, added: 10 µM Mg2+; reference: high Mg2+ state, higher = stronger signaling).

A few entries again (sample 1):
The log fluorescence of `TTAGATTTCGGATATCGATTAGTGCTA` is reported as 1.06 z-score.
